# Measured values collected from several papers.
# Each numbered part is a random draw from the data of one study; scales do not carry over between parts.

# Block 1
# Target: RING finger protein unkempt homolog, zinc fingers 1-6, GST-SBP tag (UNK, Homo sapiens, UniProt Q9C0B0, residues 30-357)
# Chain of UniProt Q9C0B0 (30-357, looked up): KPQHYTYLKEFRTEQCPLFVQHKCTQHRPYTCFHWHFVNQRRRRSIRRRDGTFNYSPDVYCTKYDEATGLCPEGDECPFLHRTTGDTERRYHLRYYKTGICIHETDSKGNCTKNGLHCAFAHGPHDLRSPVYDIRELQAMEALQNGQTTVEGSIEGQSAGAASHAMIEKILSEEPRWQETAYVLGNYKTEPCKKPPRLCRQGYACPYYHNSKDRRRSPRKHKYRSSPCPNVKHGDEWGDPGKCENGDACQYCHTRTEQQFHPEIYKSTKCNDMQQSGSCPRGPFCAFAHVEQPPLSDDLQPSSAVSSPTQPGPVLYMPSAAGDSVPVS
# Method: RNA Bind-n-Seq
# Form: RNA
# Matrix: in vitro
# Concentration: not given
# Setting: RNA with constant flanks, ends assumed
# Relative to: input RNA pool
# Reading: higher = stronger binding
# Shared flanks, not repeated: GGGAGUUCUACAGUCCGACGAUC … CAACAGAGGAUUGAGCAUCA
Oligonucleotide,bound/input enrichment [ratio]
UACAUUUACAAAGCCAUUUUACAUGCAUUAAAAGAGGGCUACAAUGUGUUUUACAAAUACCCGCACUUUUUUUUCCUGUUAUGUACCUAGUGUUAGAGGGUCAGAAUAAUCUUUCUGCUU,0.224
GUUGCCUACAUGUCCCUGGCUGUUGAGGCGCUGCUUCAGCCUGCACCCCUCCCUUGUCUCACCGAUGCUCCUUUUGACCUUUUCAAAUAAAUAUGGAUGGCGAGCUCCUAGGCCUCUGGC,0.292
GAUAAUCCUGUUUAAACUGGUGCUGUGUACAUGGGAUGUACUGAUACAGAACUUCUCUUCCCGGGAAAGCUAAUCAUUUGUCAAUGAUUUAAAAAUUAUUGUCACUACUGUUGAUUACUG,0.2
GUUCGGCUCUGGGAUCAUGCCACAAUGACAGAAGUGAAAUCUCUGAAUUUUAAUAUGUCUGUCCGCAGCAUGGAGUAUAUUCCUGAAGGAGAGAUUUUGGUUAUUACUUAUGGACGAUCU,0.195
UGGGUGACAGAGCGAGACUUAUAGAUAGAUAGAUAGAUAGAUGGAUAGAUAGAUAGACCGACCGACCGAUAGAUAAACGGAAUUGGAGCCAUUUUGCUUUAAGUGAAUGGCAGUCCCUUG,152
ACCACGCAUCUGUUUUGUCCCACAAUGCGCUUUUCUCUCCCAAAUCCCGAUUUCUGCUGUCACCGCCUCUAUUCAAUUUUUAUUUAUUGUCUGCCCUCCACUUAUACAAUCGUAGAGAGC,1.05
AUUUUGUGCCAGUCACUCCUAGAAAAUCUAGACAAGCUUCCUGGAGAUUCACGAACAAGAACCGGAUUCAUGACCUUUGAUAGCACUAUUCAUUUCUACAAUUUACAAGAAGGAUUAUCA,2.84
GAUGAGGUCCAGGCUAUUUGCCAACCUGAGGGAAAUUACUGCCCGUCAGCAGAGUUCAUUCCGCAGACUAUGUAGGCAAUGGAACCAAAGUUUUUUACUUUUUUUUUCCUGUUUUUUUUU,0.351
CCACCAGAUUCCAGCCAACAUGACUCUUGCAGCCUAUAAGGAGAAGAUGAAGGAACUCCCACCCGUGUCUCUGUUCUGCUCUUGCUUCUUGUCUGAUCCCCUGAAUAAAUCAUCCUACAA,0.368
CGGCCGAGUUCAGUGUCCCUUGUUCAGGGCUCUUGAUAAUGUUUGACCCAGUGGCAACACCCGCCGACGACCUGAUUUUAAAGCUGACCUCAGCCUCUGCAUCUUCUCUCGAGUAGUCCC,0.277
AGAGGUGCAAAGAAGACUGCAGAAAUGAACGAAAAGCUCUCCAAGAUGGGUGAAAGUUCACUCCGAAACUUUACGAUGGACACAGAGUCCAGUGUUUAUAACUUUGAAGGAGAAGACUAU,0.154

# Block 2
# Target: Sal-like protein 4, full length isoform A (SALL4, Homo sapiens, UniProt Q9UJQ4, residues 1-1053)
# Chain of UniProt Q9UJQ4 (whole entry, looked up): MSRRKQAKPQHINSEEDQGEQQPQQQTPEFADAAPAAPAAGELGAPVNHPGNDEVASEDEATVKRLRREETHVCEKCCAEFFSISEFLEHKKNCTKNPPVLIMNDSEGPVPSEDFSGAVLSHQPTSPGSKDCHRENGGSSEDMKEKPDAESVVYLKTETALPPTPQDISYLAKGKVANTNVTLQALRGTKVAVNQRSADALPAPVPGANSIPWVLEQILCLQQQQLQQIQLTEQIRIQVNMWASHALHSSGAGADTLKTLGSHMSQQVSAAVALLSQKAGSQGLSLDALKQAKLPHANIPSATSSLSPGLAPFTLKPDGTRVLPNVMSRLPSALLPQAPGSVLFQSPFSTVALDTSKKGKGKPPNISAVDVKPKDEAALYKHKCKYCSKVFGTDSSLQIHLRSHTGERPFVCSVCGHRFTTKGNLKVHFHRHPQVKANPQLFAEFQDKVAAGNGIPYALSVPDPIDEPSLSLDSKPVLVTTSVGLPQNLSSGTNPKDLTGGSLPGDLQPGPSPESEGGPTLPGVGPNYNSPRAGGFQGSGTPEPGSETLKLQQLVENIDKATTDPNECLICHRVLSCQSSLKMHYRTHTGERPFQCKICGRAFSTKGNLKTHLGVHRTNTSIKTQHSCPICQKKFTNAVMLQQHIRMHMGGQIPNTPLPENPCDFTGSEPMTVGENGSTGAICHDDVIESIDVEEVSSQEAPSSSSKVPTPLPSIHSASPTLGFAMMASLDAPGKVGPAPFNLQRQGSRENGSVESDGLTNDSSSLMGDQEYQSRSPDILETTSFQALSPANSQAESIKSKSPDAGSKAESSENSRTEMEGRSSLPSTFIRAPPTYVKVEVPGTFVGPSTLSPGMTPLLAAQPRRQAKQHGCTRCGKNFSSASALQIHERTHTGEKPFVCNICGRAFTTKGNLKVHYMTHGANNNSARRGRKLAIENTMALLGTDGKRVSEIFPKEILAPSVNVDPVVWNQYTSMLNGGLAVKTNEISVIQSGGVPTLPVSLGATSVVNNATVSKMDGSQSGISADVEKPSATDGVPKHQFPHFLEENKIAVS
# Method: universal PBM
# Form: double-stranded DNA, one strand shown
# Matrix: in vitro
# Concentration: 600 nM
# Setting: 8-mer, flanks averaged, mean of replicates
# Reading: higher = stronger binding
Oligonucleotide,E-score
CCAGACTA,0.0066
GACGCTTA,-0.0682
ACTAGGCT,-0.0199
AAGGGACA,-0.0532
CAGTAAAG,0.0794
AAGAGAAC,0.0918
CGGCGAAC,-0.122
GCTGGGAC,-0.281
AGCCGGCC,-0.332
GGCAATCA,0.0115
CTAATGTC,0.00125
GCTATTAA,0.209
CCCATGAC,-0.166
CGCACCCA,-0.302
GCAGCTGA,-0.116
ACAGTTAG,-0.078
GATATGCA,0.253
ATAAGTTA,0.349
GAGACACC,-0.188
GTCAGTGA,0.0307

# Block 3
# Target: Interferon regulatory factor 5, full length, phosphomimetic (IRF5, Homo sapiens, UniProt Q13568-2, residues 1-514, K96S/S451D/S453D/S456D/S462D)
# Method: protein-binding microarray
# Form: double-stranded DNA, one strand shown
# Matrix: in vitro
# Concentration: 250 nM
# Setting: 60-bp whole probe
# With: salmon DNA 0.4 mg/ml
# Relative to: random background probes
# Reading: higher = stronger binding
# Shared flanks, not repeated: GCCTAGCAC … GTCTTGATTCGCTTGACGCTGCTG
Oligonucleotide,log fluorescence
TCACTTCTGTATTCATGACTGTGCTAG,0.798 z-score
TTAGGTCTCCTACTGCTATAGTGCTAG,-0.175 z-score
GACGAGCTCAGTATCGAGACGTGCTAG,1.73 z-score
GACGACCTGAGACTGGAGACGTGCTAG,-0.396 z-score
TCAAAATTAGTGTTTGCCACTGTGCTA,0.216 z-score
GTAGGACTGGGTCTCGGTTAGTGCTAG,-0.54 z-score
GACGACATCGGGACTGGAGACGTGCTA,-0.239 z-score
GATGATCTCAGACTGGAGACGTGCTAG,-0.29 z-score
GACGGAATGGACACTGGGGACGTGCTA,-0.347 z-score
GACGCTTTCCTTTTCCTGACGTGCTAG,1.38 z-score
CTAATTTTCAATTCCTGAAAGTGCTAG,2.2 z-score
GACGGTCTCGGTATCGGGATGTGCTAG,1.24 z-score
GACGGTTTCGACACTGGGCACGTGCTA,4.7 z-score
GACGAACTGCGTCTCGAGACGTGCTAG,-0.541 z-score
TTAGGTCCCCTACTGCTTTAGTGCTAG,-0.31 z-score
TAGGTTTCACTTTCCAAAACGTGCTAG,7.51 z-score
CGCTTTTTTTTTTTTTTTTTGTGCTAG,0.772 z-score
CAATTCCTGAAATCTCTTTCCGTGCTA,0.82 z-score
TCATCATTGCATATAGAACTGTGCTAG,0.505 z-score
GACGATATCGGGTTTCGAGAAGTGCTA,4.08 z-score
TCATTTTACTTTCTATCACTGTGCTAG,6.16 z-score
TTAGATATCAGTTTGGATTAGTGCTAG,1.24 z-score
TTAAGTATCCTACTGCTTTAGTGCTAG,0.237 z-score
CTAATATTGAGACTCATGGGGTGCTAG,0.0553 z-score
GACGGTTTCGATTTTCGGGACGTGCTA,8.55 z-score

# Block 4
# Target: RNA binding protein fox-1 homolog 2, RRM domain, GST-SBP tag (RBFOX2, Homo sapiens, UniProt O43251-10, residues 100-194)
# Method: RNA Bind-n-Seq
# Form: RNA
# Matrix: in vitro
# Concentration: 365 nM
# Setting: natural RNA segment, single round, ends assumed
# Relative to: no-protein control
# Reading: higher = stronger binding
# Shared flanks, not repeated: GGGAGUUCUACAGUCCGACGAUC … UGGAAUUCUCGGGUGCCAA
# Target sequence (chain): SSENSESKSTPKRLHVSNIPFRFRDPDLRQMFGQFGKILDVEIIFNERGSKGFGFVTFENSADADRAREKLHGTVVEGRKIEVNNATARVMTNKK
Oligonucleotide,RBNS enrichment (R)
UGUUUCCAUCAUAUUGCAGUGUAUGUGGGAUUUUCUGUAAAAUGGGUGUAAUUUUUCCCUUAAAAAGGUGUGUGACAACAAGAGAAGUUGCCUGCAUGCCGGUUUAAAUU,0.408
CUUGAAGUAUCUUUCGUGAGAGUAGUAUGGAAGUAAAACGUUCUCAUAUCAGGAGGAUGUCAUUUGUGAAGCAUGGGGACAUCAUGAACUAGUGAUGUGCGUGAGGCUUG,3.52
UCCUGUUGUCUGAAACCUGGAGCUAAGCAGGUUGUCCUGUCACAAGCUCUGGGGACUGAGCUCCAUGCUCCAACCCCACCCUCUUCUGACCUUUGUUCUCCAGACCUGAC,0.507
UAAGUAAAACUAAAAGCACAGAAUGGUGGGAAAGGGGCUAUAAUGUGGUUCAUUAAUAAUGUUAGCAGCUUUUUUCUAACCAUCCUGUCUAAUGGUUAAGACACCAGUAA,0.287
AUUUAAACGACUGGUCCAAAUUUUGCCUUCAGUUACAAGUCUGUGGCUCUCAUUUGCCUCCUCAGAAGAGUGGGACAGGGCUCCAUGGGAGACCCAGAGUUCAGGCUACA,0.274
GACUUUCCAAAGAACCCUUAAGUUUCCAUUUCCCAGUGGCAAUAACUGUGACCUGAUCCCUACCCCACAUGCUGUCUCCUUUUCUUUGGGAGUUAGCAACAUUUGAGGAU,0.385
CUUGUUUAGGGCCAGCAACAGGGGUUCUGGCCCUGUUGAAACUUUAGUCCAGCCCUCUCGCAAUGGCUUGUGACUCACAGGAUUGCACCAUCCCCACUGCUAACUUGGGG,0.608
CCACCCACCCAGCGGUAUUGGAAGUGGCGACCAGGGGUGACCCGUCGUGGAGCCACUUCUCGCACUGCCACGGAGCAGCCGGAAACAAGGAGGCCUCGUGGGAUCCUUUA,0.146
AAGCUGACAUAGUGUGAUUUGCCAUGUAAUGUUUAUAGCUGCUGCUGUCUGCACAUUUGGGGGUCUCUAUAUUUCUGAAGAGGUAAGCUGAUGAAAAUAAAUAGAGUGUA,0.768
GACUUGCUUCCUGCAUGGUAGGGAGAGACACAAAAGAUGGGAAACUGCUUUUCCACAAGGAAUCUCCGUAGAAUUUUGCGGCGACCAGAUGGUGCAUAGGUCUGGAAGGU,2.76
UUUUACUUGAGCAAAGAACUAAGGAUUUUUCCAUGGACAUGGGCAGCAAUUCACGCUGUCUCUUCUUAACCCUGAACAAGAGUGUCUAUGGAGCAGCCGGAAGUCUGUUC,0.207
CACUUUAUUCCUGCCCACGUGGCUUUUGGCUGAGACCUGUGUAACCUGCUGUCCCUCACUCACCUGUCACCUGUCACCCUACGGGGACCCACUUGUGGCUUCCCACGUGG,0.295

# Block 5
# Target: Histone acetyltransferase KAT6A, winged helix 1, GST fusion (KAT6A, Homo sapiens, UniProt Q92794, residues 1-85)
# Method: protein binding microarray
# Form: double-stranded DNA, one strand shown
# Matrix: in vitro
# Concentration: not given
# Setting: 8-mer, flanks averaged, mean of 2 arrays, mostly near background
# Relative to: not given
# Reading: higher = stronger binding
# Construct (chain): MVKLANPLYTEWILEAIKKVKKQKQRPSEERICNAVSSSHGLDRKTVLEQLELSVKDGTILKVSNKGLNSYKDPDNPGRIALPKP
Oligonucleotide,E-score
AAATGCTC,-0.11
CCAGATCA,-0.109
CCATTCCG,0.0687
CCCTTTTA,-0.165
CCAGCTAA,-0.141
ACCTACTA,0.0136
AATTCTAG,-0.275
CAGGCGTC,0.0715
CTCGAGAA,-0.0595
CAACTTGG,-0.109
CAGTGCAA,-0.196
ATATGTGA,-0.0885
AAGCGCTA,0.326
CACCCGGC,0.359
AATTGAAG,-0.0797
CTACCATC,-0.24

# Repeated from above (block 1):
Oligonucleotide,bound/input enrichment [ratio]
GAUAAUCCUGUUUAAACUGGUGCUGUGUACAUGGGAUGUACUGAUACAGAACUUCUCUUCCCGGGAAAGCUAAUCAUUUGUCAAUGAUUUAAAAAUUAUUGUCACUACUGUUGAUUACUG,0.2
CCACCAGAUUCCAGCCAACAUGACUCUUGCAGCCUAUAAGGAGAAGAUGAAGGAACUCCCACCCGUGUCUCUGUUCUGCUCUUGCUUCUUGUCUGAUCCCCUGAAUAAAUCAUCCUACAA,0.368
GUUCGGCUCUGGGAUCAUGCCACAAUGACAGAAGUGAAAUCUCUGAAUUUUAAUAUGUCUGUCCGCAGCAUGGAGUAUAUUCCUGAAGGAGAGAUUUUGGUUAUUACUUAUGGACGAUCU,0.195
CGGCCGAGUUCAGUGUCCCUUGUUCAGGGCUCUUGAUAAUGUUUGACCCAGUGGCAACACCCGCCGACGACCUGAUUUUAAAGCUGACCUCAGCCUCUGCAUCUUCUCUCGAGUAGUCCC,0.277
UGGGUGACAGAGCGAGACUUAUAGAUAGAUAGAUAGAUAGAUGGAUAGAUAGAUAGACCGACCGACCGAUAGAUAAACGGAAUUGGAGCCAUUUUGCUUUAAGUGAAUGGCAGUCCCUUG,152
GUUGCCUACAUGUCCCUGGCUGUUGAGGCGCUGCUUCAGCCUGCACCCCUCCCUUGUCUCACCGAUGCUCCUUUUGACCUUUUCAAAUAAAUAUGGAUGGCGAGCUCCUAGGCCUCUGGC,0.292
